Assay results of several laboratories.
Protocols differ between the studies behind these lines. ± marks the error that the study gave.

| Substance | test | system | conditions | how to read | quantity | value |
| --- | --- | --- | --- | --- | --- | --- |
| rnpA F107W (Bacillus subtilis) | NMR, measured: His22 |  | 25 °C, 1.00 M NaCl, folded, sulfate-bound, numbering of the source, added: sulfate 20 mM |  | pKa | 5.99 |
| CC(C)[C@H](NC(=O)[C@@H]1CCCN1C(=O)[C@H](CCCNC(=N)N)NC(=O)[C@H](CS)NC(=O)[C@H](Cc1c[nH]c2ccccc12)NC(=O)[C@H](CCCNC(=N)N)NC(=O)[C@@H](Cc1ccccc1)NC(=O)[C@H](Cc1c[nH]cn1)NC(=O)[C@H](CCC(=O)O)NC(=O)[C@H](CS)NC(=O)[C@H](CS)NC(=O)[C@H](CCCCN)NC(=O)[C@@H]1CC(=O)N[C@@H](CCCNC(=N)N)C(=O)N[C@@H](C)C(=O)N[C@@H](CC(=O)O)C(=O)N[C@H](Cc2ccc(O)cc2)C(=O)N1)C(N)=O [technetium-99m labelled] |  | C57 mice, tumor | intravenous, 0.037 MBq, 2 h |  | tissue uptake | 19.9 ± 4.02 %ID/g |
| NPH insulin | radioimmunoassay, measured: insulin | female non-fasted rat, serum | 5 IU/kg, 1 to 24 h, dose 189 |  | Cmax | 1160 µIU/mL |
| Insulin human | ELISA | rat, cerebellum | intranasal, 20 µg per nostril, 120 min |  | concentration | 86.7 ± 81 pg/mg tissue |
| COc1cccc2c1C(=O)c1c(O)c3c(c(O)c1C2=O)C[C@@](O)(C(=O)CO)C[C@@H]3O[C@H]1C[C@H](NC(=O)[C@@H]2CCCN2C(=O)CN)[C@H](O)[C@H](C)O1 |  | mouse, E0771 tumour-bearing, plasma | intravenous, 92 µmol/kg PhAc-ALGP-Dox |  | AUC | 1.49 µM·h |
| insulin degludec | ELISA | human moderate renal impairment, serum | dose not given, single dose | reference: impaired over normal renal function | AUC(0-inf) ratio | 1.11 |
| CSCC[C@H](NC(=O)[C@H](CC(C)C)NC(=O)[C@H](Cc1c[nH]cn1)NC(=O)CNC(=O)[C@@H](NC(=O)[C@H](C)NC(=O)[C@H](Cc1c[nH]c2ccccc12)NC(=O)[C@H](CCC(N)=O)NC(=O)CCCCCNC(=O)[C@H](CCC(=O)NCCCC[C@@H]1NC(=O)[C@@H](Cc2ccc(O)cc2)NC(=O)[C@H](CC(=O)O)NC(=O)CNC(=O)[C@H](CCCNC(=N)N)NC1=O)NC(=O)CN1CCN(CC(=O)O)CCN(CC(=O)O)CC1)C(C)C)C(N)=O [copper-64 labelled] |  | ICR SCID mouse, female, spleen | intravenous, 750 kBq, 24 h |  | tissue uptake | 0.63 ± 0.17 %ID/g |
| COc1cccc2c1C(=O)c1c(O)c3c(c(O)c1C2=O)C[C@@](O)(C(=O)CO)C[C@@H]3O[C@H]1C[C@H](NC(=O)[C@@H]2CCCN2C(=O)CNC(=O)[C@@H](N)CC(C)C)[C@H](O)[C@H](C)O1 |  | mouse, E0771 tumour-bearing, kidney | intravenous, 92 µmol/kg PhAc-ALGP-Dox |  | AUC | 3.7 µM·h |

A few entries again:
| Substance | test | system | conditions | how to read | quantity | value |
| --- | --- | --- | --- | --- | --- | --- |
| Insulin human | ELISA | rat, cerebellum | intranasal, 20 µg per nostril, 120 min |  | concentration | 86.7 ± 81 pg/mg tissue |
